Published values gathered from unrelated publications.
A part holds a random share of what one study measured.
Chain of UniProt P47898 (whole entry, looked up): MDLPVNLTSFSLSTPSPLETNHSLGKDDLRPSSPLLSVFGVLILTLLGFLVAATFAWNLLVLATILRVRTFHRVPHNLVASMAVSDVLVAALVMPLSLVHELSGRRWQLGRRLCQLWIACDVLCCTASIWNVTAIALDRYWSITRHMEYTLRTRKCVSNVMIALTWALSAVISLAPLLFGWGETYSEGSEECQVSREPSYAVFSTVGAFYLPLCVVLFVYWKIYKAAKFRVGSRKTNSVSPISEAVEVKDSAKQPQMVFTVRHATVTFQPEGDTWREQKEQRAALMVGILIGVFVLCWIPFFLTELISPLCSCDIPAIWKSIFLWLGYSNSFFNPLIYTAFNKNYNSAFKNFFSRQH

Sample 1
Target: GDNF-inducible zinc finger protein 1, full length (GZF1, Homo sapiens, UniProt Q9H116, residues 1-711)
Chain of UniProt Q9H116 (whole entry, looked up): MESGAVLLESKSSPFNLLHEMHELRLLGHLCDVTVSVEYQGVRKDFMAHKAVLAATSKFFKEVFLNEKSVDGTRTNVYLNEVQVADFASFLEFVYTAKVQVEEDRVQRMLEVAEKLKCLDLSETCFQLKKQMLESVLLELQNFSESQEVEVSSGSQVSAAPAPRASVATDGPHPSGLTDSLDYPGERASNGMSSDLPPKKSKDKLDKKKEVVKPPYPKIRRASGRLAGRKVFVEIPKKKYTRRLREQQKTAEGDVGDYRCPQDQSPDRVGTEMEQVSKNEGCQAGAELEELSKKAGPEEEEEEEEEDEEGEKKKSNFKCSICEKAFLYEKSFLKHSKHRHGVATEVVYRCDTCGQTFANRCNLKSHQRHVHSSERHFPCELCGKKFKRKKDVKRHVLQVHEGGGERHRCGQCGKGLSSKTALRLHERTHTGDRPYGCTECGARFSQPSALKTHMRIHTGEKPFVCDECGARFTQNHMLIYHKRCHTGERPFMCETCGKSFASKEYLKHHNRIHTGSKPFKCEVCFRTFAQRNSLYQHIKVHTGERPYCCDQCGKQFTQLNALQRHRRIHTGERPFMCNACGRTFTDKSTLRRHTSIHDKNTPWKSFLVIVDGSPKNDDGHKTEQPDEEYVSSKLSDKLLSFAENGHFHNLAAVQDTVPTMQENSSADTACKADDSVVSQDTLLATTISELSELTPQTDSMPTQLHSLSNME
Technique: protein-binding microarray
Form: hairpin DNA
Matrix: in vitro
Tested at: not given
Setting: whole hairpin DNA, median over replicate spots
Relative to: not given
Direction: higher = stronger binding
Oligonucleotide | median fluorescence [a.u.]
GAGGCCAGTACGGTAATGCCTCCTGGCATTACCGTACTGGCCTCACACTC | 729
GAGGCCCGTACGGTAATGCCTCCTGGCATTACCGTACGGGCCTCACACTC (5mC at 37) | 720
GAGGCCATTACGGTAAGGCCTCCTGGCCTTACCGTAATGGCCTCACACTC | 572
GAGGCCATTACGATAATGCCTCCTGGCATTATCGTAATGGCCTCACACTC | 395
GAGGCCATTACGGCAATGCCTCCTGGCATTGCCGTAATGGCCTCACACTC | 530
GAGGCCATTACGGTAAAGCCTCCTGGCTTTACCGTAATGGCCTCACACTC | 574
GAGGCCATTACGGTCATGCCTCCTGGCATGACCGTAATGGCCTCACACTC (5mC at 15) | 514
GAGGCCATTAGGGTAATGCCTCCTGGCATTACCCTAATGGCCTCACACTC | 351

Sample 2
Target: Transcription factor SOX-2, HMG box (Sox2, Mus musculus, UniProt P48432, residues 41-119)
Chain of UniProt P48432 (41-119, looked up): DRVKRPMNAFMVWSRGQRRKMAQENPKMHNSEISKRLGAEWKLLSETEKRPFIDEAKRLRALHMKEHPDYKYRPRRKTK
Technique: Spec-seq
Form: double-stranded DNA, one strand shown
Matrix: in vitro
Tested at: not given
Setting: whole probe, mean of replicates
Relative to: not given
Direction: lower = stronger binding
All sequences stand within: GAGTCGTCTCGTCAGCAC … CCGTAGAGCACTCAGGTC
Oligonucleotide | relative binding energy
CATACCG | 0.319 ln ratio
CATCGGA | 0.74 ln ratio
CATGGAC | -0.0548 ln ratio
CATAGGT | -0.438 ln ratio
CATCGAG | 0.421 ln ratio
CATTGGA | -0.241 ln ratio
TTACGTT | 0.608 ln ratio
CTCTGTT | -0.676 ln ratio

Sample 3
Substance: PhoQ, residues 284 288 289 292 302 303 SIHLQL
Technique: Sort-seq
Item: YFP reporter
Matrix: E. coli
Setting: PhoQ-PhoP variant library
Together with: 10 µM Mg2+
Relative to: high Mg2+ state
Direction: higher = stronger signaling
target | fold induction
PhoP, residues 12 14 15 18 19 LHHYF (Escherichia coli, UniProt P23836) | 4
PhoP, residues 12 14 15 18 19 NFFVT (Escherichia coli, UniProt P23836) | 12.7
PhoP, residues 12 14 15 18 19 TPWTL (Escherichia coli, UniProt P23836) | 13.9
PhoP, residues 12 14 15 18 19 VGHWL (Escherichia coli, UniProt P23836) | 1.82

Other studies, line by line
SMILES | target | test | test system | conditions | inhibition
COc1cc(C(=O)N2CCC(N3CCN(C)CC3)CC2)ccc1Nc1ncc2c(n1)N(C)c1ccccc1C(=O)N2C | AKT1 (mouse) | probe labelling, KiNativ, item: GTFGkVILVK peptide, ATP loop | brain tissue lysate (mouse) | 0.1 µM, together with: ADP acyl-phosphate probe | -6%
CN([C@@H]1CCc2c(CC(=O)O)c3ccccc3n2C1)S(=O)(=O)c1ccc(F)cc1 | 5-hydroxytryptamine receptor 5A (HTR5A, Homo sapiens, UniProt P47898) | ligand displacement |  | 10 µM | -1.36%

A few entries again (sample 1):
Oligonucleotide | median fluorescence [a.u.]
GAGGCCATTACGGCAATGCCTCCTGGCATTGCCGTAATGGCCTCACACTC | 530
GAGGCCATTAGGGTAATGCCTCCTGGCATTACCCTAATGGCCTCACACTC | 351
